Measurements collected from several papers.
Every numbered part comes from another study and shows a few of its results, in no order.
Sequence of UniProt P21802 (whole entry, looked up): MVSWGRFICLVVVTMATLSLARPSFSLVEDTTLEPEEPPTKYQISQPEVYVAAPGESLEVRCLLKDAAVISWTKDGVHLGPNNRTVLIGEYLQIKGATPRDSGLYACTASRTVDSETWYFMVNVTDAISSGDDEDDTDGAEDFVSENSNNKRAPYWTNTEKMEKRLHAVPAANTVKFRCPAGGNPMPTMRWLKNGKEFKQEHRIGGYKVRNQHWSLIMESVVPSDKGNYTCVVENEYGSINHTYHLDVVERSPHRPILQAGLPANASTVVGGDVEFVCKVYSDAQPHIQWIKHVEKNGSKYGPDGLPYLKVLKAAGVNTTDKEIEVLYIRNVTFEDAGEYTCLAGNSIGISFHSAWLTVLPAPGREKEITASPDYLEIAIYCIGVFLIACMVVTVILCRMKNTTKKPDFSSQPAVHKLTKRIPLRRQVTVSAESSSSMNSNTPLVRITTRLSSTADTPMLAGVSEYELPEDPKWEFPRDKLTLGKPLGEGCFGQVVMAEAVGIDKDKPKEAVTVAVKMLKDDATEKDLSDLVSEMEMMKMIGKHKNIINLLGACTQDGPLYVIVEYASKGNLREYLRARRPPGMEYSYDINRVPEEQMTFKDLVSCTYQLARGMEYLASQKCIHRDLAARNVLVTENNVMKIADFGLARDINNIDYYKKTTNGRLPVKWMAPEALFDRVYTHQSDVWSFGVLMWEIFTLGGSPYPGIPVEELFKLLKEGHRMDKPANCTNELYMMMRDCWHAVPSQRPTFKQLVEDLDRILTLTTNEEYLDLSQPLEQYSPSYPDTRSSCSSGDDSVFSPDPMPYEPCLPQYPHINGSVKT
Sequence of UniProt O15264 (whole entry, looked up): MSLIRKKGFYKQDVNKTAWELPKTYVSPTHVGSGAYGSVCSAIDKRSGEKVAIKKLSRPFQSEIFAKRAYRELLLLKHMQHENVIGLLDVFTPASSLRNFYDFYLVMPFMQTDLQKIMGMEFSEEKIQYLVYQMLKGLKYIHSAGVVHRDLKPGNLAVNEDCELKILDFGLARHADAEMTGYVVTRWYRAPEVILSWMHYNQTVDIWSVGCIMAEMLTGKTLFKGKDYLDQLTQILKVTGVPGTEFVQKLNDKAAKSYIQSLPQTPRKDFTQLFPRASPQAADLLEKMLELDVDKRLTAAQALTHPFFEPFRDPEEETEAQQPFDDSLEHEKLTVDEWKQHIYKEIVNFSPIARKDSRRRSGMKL
Sequence of UniProt P48730 (whole entry, looked up): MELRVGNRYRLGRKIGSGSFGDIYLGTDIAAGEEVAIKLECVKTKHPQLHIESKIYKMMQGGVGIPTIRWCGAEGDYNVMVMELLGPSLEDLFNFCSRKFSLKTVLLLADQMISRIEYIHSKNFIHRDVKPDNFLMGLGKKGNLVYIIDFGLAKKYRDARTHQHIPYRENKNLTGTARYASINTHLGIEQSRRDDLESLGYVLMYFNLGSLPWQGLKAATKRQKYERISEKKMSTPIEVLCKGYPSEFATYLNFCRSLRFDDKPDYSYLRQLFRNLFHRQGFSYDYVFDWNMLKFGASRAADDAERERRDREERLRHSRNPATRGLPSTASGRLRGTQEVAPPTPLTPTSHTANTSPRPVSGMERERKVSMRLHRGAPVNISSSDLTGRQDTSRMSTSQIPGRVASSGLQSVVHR
Sequence of UniProt Q13976 (whole entry, looked up): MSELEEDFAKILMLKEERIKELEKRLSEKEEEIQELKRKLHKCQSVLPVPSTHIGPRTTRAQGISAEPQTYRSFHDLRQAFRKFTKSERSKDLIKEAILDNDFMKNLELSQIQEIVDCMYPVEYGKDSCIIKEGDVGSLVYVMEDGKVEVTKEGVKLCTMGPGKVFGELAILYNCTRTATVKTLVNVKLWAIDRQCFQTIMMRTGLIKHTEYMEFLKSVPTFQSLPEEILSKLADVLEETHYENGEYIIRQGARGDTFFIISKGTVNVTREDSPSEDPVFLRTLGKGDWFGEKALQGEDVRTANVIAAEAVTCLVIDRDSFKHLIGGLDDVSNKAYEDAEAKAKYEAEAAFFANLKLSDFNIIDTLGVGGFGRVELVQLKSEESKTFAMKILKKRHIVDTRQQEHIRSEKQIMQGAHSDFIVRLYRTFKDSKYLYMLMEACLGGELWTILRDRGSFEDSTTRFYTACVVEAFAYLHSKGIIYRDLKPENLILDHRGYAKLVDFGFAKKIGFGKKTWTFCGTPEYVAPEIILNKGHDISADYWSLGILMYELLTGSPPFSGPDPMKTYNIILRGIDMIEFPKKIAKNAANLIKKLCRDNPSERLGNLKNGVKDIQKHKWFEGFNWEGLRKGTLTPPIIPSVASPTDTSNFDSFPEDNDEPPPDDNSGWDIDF
Sequence of UniProt Q9Y3S1 (whole entry, looked up): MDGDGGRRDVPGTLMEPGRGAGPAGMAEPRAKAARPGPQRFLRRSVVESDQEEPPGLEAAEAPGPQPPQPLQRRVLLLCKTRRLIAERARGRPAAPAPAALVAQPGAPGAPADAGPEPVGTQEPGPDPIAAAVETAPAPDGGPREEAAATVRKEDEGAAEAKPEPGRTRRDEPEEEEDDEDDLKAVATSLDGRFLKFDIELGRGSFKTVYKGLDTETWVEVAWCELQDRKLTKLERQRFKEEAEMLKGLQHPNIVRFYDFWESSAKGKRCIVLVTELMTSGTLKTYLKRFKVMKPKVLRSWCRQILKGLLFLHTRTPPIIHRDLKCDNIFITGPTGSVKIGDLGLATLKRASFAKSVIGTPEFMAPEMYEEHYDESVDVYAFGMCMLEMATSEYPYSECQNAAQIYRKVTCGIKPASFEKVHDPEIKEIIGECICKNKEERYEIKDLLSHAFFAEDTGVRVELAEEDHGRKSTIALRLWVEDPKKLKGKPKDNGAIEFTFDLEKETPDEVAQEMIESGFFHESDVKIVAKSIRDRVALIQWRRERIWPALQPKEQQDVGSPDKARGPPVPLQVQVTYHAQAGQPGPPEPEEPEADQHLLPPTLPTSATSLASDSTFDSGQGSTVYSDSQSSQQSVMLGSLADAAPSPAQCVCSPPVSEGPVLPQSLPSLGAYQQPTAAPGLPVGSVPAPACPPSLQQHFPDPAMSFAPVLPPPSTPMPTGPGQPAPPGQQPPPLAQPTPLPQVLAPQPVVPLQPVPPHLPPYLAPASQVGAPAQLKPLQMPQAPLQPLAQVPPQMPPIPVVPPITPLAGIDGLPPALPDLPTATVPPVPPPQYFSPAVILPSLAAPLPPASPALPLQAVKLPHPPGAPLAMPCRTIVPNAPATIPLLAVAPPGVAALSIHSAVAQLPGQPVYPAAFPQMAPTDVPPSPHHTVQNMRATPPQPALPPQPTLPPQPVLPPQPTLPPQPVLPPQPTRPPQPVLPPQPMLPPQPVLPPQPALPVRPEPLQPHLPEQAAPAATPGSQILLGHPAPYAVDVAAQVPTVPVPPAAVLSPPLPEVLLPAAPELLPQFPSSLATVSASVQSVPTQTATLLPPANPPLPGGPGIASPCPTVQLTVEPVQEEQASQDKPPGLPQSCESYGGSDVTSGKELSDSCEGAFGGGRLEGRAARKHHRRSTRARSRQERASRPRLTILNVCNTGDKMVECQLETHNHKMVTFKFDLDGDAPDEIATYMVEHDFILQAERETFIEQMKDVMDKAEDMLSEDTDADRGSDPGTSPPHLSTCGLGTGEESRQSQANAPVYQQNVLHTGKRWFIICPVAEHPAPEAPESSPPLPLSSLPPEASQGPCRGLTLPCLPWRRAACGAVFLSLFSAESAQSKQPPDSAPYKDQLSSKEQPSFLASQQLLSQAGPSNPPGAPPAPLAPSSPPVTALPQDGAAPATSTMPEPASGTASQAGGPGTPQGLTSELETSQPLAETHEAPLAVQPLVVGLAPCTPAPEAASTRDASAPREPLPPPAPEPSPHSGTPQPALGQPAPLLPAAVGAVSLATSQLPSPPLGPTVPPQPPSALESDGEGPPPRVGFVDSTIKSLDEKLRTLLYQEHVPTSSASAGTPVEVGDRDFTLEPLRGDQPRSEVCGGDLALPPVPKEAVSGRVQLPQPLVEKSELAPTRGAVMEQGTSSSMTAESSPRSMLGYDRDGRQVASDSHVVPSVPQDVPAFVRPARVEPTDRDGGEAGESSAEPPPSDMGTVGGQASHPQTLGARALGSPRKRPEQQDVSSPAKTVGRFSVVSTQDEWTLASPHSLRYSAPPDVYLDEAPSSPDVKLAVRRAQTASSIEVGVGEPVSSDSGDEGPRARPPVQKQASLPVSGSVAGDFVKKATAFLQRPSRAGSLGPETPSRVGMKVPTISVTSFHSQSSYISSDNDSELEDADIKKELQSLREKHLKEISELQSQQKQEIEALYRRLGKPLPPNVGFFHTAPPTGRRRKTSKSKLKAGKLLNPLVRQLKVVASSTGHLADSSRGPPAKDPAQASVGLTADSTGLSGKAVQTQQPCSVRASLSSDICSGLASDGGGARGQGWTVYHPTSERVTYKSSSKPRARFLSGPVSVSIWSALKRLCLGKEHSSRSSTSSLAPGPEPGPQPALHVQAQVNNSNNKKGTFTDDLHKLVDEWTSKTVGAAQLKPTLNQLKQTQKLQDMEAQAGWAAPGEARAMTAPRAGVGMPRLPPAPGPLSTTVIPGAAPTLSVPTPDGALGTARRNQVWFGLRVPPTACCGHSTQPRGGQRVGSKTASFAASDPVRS

Block 1
Compound: Cc1sc(C(=O)NC2COC2)cc1-n1cc(NC(=O)Nc2c(F)cccc2Cl)cn1
Read-out: enzyme activity
Tested at: 10 µM
Quantity: remaining activity
Serine/threonine-protein kinase N3 (PKN3, Homo sapiens, UniProt Q6P5Z2); inhibitor: 98.6%
Serine/threonine-protein kinase PAK 2 (PAK2, Homo sapiens, UniProt Q13177); relative to: untreated control: 104%
Mitogen-activated protein kinase kinase kinase 6 (MAP3K6, Homo sapiens, UniProt O95382); inhibitor: 79.3%
Inhibitor of nuclear factor kappa-B kinase subunit epsilon (IKBKE, Homo sapiens, UniProt Q14164); relative to: untreated control: 115%
Cyclin-dependent kinase 7 (CDK7, Homo sapiens, UniProt P50613); relative to: untreated control: 102%
Ribosomal protein S6 kinase beta-1 (RPS6KB1, Homo sapiens, UniProt P23443); relative to: untreated control: 91.1%
Serine/threonine-protein kinase tousled-like 1 (TLK1, Homo sapiens, UniProt Q9UKI8); relative to: untreated control: 103%
Fibroblast growth factor receptor 2 (FGFR2, Homo sapiens, UniProt P21802); relative to: untreated control: 106%
Serine/threonine-protein kinase D3 (PRKD3, Homo sapiens, UniProt O94806); relative to: untreated control: 102%
Cyclin-dependent kinase 3, with cyclin E (CDK3, Homo sapiens, UniProt Q00526); relative to: untreated control: 91%
cGMP-dependent protein kinase 2 (PRKG2, Homo sapiens, UniProt Q13237); relative to: untreated control: 96.5%
Tyrosine-protein kinase BTK (BTK, Homo sapiens, UniProt Q06187); relative to: untreated control: 87%
Dual specificity testis-specific protein kinase 2 (TESK2, Homo sapiens, UniProt Q96S53); inhibitor: 99.2%
Mitogen-activated protein kinase 3 (MAPK3, Homo sapiens, UniProt P27361); relative to: untreated control: 107%
Cyclin-dependent kinase 18, with cyclin Y (CDK18, Homo sapiens, UniProt Q07002); relative to: untreated control: 118%
Mitogen-activated protein kinase 13 (MAPK13, Homo sapiens, UniProt O15264); relative to: untreated control: 85.7%

Block 2
SMILES: O=C(NCc1ncc(C(F)(F)F)cc1Cl)c1ccc2c(c1)C1(CCS(=O)(=O)CC1)[C@H](C1CC1)N2S(=O)(=O)c1ccc(F)cc1
Read-out: cell-free assay
Technique: competition with immobilised ligand
Tested at: 1 µM
Quantity: remaining binding
Tyrosine-protein kinase Blk (BLK, Homo sapiens, UniProt P51451): 78%
Casein kinase I isoform delta (CSNK1D, Homo sapiens, UniProt P48730): 85%
Maternal embryonic leucine zipper kinase (MELK, Homo sapiens, UniProt Q14680): 54%
Protein kinase C eta type (PRKCH, Homo sapiens, UniProt P24723): 100%
Dual specificity mitogen-activated protein kinase kinase 4 (MAP2K4, Homo sapiens, UniProt P45985): 75%
5'-AMP-activated protein kinase catalytic subunit alpha-1 (PRKAA1, Homo sapiens, UniProt Q13131): 39%
Epidermal growth factor receptor (EGFR, Homo sapiens, UniProt P00533, del752-759): 100%
Phosphatidylinositol 4,5-bisphosphate 3-kinase catalytic subunit alpha isoform (PIK3CA, Homo sapiens, UniProt P42336, E542K): 94%
Serine/threonine-protein kinase tousled-like 2 (TLK2, Homo sapiens, UniProt Q86UE8): 100%
Activin receptor type-1 (ACVR1, Homo sapiens, UniProt Q04771): 100%
Serine/threonine-protein kinase SIK3 (SIK3, Homo sapiens, UniProt Q9Y2K2): 100%
Wee1-like protein kinase (WEE1, Homo sapiens, UniProt P30291): 82%
Dual specificity mitogen-activated protein kinase kinase 3 (MAP2K3, Homo sapiens, UniProt P46734): 71%
Fibroblast growth factor receptor 2 (FGFR2, Homo sapiens, UniProt P21802): 86%

Block 3
Target: Calcium/calmodulin-dependent protein kinase type II subunit alpha (CAMK2A, Homo sapiens, UniProt Q9UQM7)
Sequence of UniProt Q9UQM7 (whole entry, looked up): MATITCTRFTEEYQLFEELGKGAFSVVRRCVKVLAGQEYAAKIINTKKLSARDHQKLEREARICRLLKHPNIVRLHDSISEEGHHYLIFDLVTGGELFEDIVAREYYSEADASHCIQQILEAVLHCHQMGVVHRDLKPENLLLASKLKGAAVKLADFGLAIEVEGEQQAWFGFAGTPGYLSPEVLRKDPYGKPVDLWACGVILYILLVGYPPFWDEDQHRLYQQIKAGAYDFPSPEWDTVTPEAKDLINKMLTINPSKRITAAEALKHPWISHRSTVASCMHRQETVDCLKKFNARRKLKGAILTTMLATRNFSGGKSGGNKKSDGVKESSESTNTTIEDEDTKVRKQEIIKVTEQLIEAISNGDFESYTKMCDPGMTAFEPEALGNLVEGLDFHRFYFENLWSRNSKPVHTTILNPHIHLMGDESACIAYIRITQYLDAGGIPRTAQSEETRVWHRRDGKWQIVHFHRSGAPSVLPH
Read-out: enzyme activity
Action: inhibitor
Tested at: 10 µM
Quantity: inhibition
CCCCCCCCCCCCCCCCC(=O)OC: -18%
CC(=O)NCCCS(=O)(=O)O: -6%
COc1ccc(/C=C/C(=O)c2cc(CC=C(C)C)c(OC)cc2O)cc1: 19%
CNC(=O)c1cccnc1: 3%
Cc1c(C(=O)NN2CCCCC2)nn(-c2ccc(Cl)cc2Cl)c1-c1ccc(Cl)cc1: -4%
O=C(O)C1=C[C@@H](O)[C@@H](O)[C@H](O)C1: 12%
COc1cccc(C(=O)O)c1: 8%
CCC(=O)NCC[C@@H]1CCc2ccc3c(c21)CCO3: 3%
NCC(=O)O: 3%
Cc1cc(C(C)(C)C)cc(C)c1CC1=NCCN1: -6%
O=C(O)CC(CC(=O)O)C(=O)O: -33%
C[C@@H]1O[C@@H](O[C@H]2[C@H](Oc3cc(O)c4c(=O)cc(-c5ccc(O)cc5)oc4c3)O[C@H](CO)[C@@H](O)[C@@H]2O)[C@H](O)[C@H](O)[C@H]1O: 7%
COc1ccc2[nH]c([S@@+]([O-])Cc3ncc(C)c(OC)c3C)nc2c1: -3%
N#Cc1ccc(Oc2ccc3c(c2)COB3O)cc1: -11%
CC1(C)CC[C@]2(C(=O)O[C@@H]3O[C@H](CO)[C@@H](O)[C@H](O)[C@H]3O)CC[C@]3(C)C(=CC[C@@H]4[C@@]5(C)CC[C@H](O)C(C)(C)[C@@H]5CC[C@]43C)[C@@H]2C1: -2%
O=C1C[C@@H](c2ccccc2)Oc2cc(O)cc(O)c21: -19%
C[C@]12C=CC(=O)C=C1CC[C@H]1[C@@H]3C[C@@H](O)[C@](O)(C(=O)CO)[C@@]3(C)C[C@H](O)[C@@]12F: -1%
COc1cc(C[C@H](CO)[C@@H](CO)Cc2ccc(O)c(OC)c2)ccc1O: -47%
OC[C@H]1O[C@H](Oc2ccc(O)cc2)[C@H](O)[C@@H](O)[C@@H]1O: 5%
Cc1cc(O)cc(O)c1C(=O)O: -10%

Block 4
SMILES: Oc1cccc(-c2nc(N3CCOCC3)c3oc4ncccc4c3n2)c1
Read-out: enzyme activity
Action: inhibitor
Tested at: 0.5 µM
Relative to: control
Quantity: remaining activity
Serine/threonine-protein kinase WNK2 (WNK2, Homo sapiens, UniProt Q9Y3S1): 119%
Mitogen-activated protein kinase kinase kinase 10 (MAP3K10, Homo sapiens, UniProt Q02779): 92%
Serine/threonine-protein kinase 38 (STK38, Homo sapiens, UniProt Q15208): 99%
RAC-gamma serine/threonine-protein kinase (AKT3, Homo sapiens, UniProt Q9Y243): 99%
Dual specificity mitogen-activated protein kinase kinase 6 (MAP2K6, Homo sapiens, UniProt P52564): 86.6%
Serine/threonine-protein kinase PLK2 (PLK2, Homo sapiens, UniProt Q9NYY3): 94.7%
Leucine-rich repeat serine/threonine-protein kinase 2 (LRRK2, Homo sapiens, UniProt Q5S007): 101%
Mitogen-activated protein kinase 13 (MAPK13, Homo sapiens, UniProt O15264): 97.4%
cGMP-dependent protein kinase 1 (PRKG1, Homo sapiens, UniProt Q13976): 96.3%
Cyclin-dependent kinase 9, with cyclin T1 (CDK9, Homo sapiens, UniProt P50750): 105%
Protein kinase C iota type (PRKCI, Homo sapiens, UniProt P41743): 94.9%
MAP kinase-interacting serine/threonine-protein kinase 2 (MKNK2, Homo sapiens, UniProt Q9HBH9): 92.6%
Tyrosine-protein kinase Lyn (LYN, Homo sapiens, UniProt P07948): 102%
Casein kinase I isoform alpha (CSNK1A1, Homo sapiens, UniProt P48729): 87.9%
Casein kinase II subunit alpha (CSNK2A1, Homo sapiens, UniProt P68400): 94.7%
Mitogen-activated protein kinase kinase kinase kinase 2 (MAP4K2, Homo sapiens, UniProt Q12851): 93%
Ephrin type-A receptor 5 (EPHA5, Homo sapiens, UniProt P54756): 102%
Serine/threonine-protein kinase Nek4 (NEK4, Homo sapiens, UniProt P51957): 90.4%

Repeated from above (block 4):
Mitogen-activated protein kinase kinase kinase 10 (MAP3K10, Homo sapiens, UniProt Q02779): 92%
Casein kinase I isoform alpha (CSNK1A1, Homo sapiens, UniProt P48729): 87.9%
Mitogen-activated protein kinase kinase kinase kinase 2 (MAP4K2, Homo sapiens, UniProt Q12851): 93%
Casein kinase II subunit alpha (CSNK2A1, Homo sapiens, UniProt P68400): 94.7%
Serine/threonine-protein kinase Nek4 (NEK4, Homo sapiens, UniProt P51957): 90.4%
Leucine-rich repeat serine/threonine-protein kinase 2 (LRRK2, Homo sapiens, UniProt Q5S007): 101%
Serine/threonine-protein kinase 38 (STK38, Homo sapiens, UniProt Q15208): 99%
cGMP-dependent protein kinase 1 (PRKG1, Homo sapiens, UniProt Q13976): 96.3%
Mitogen-activated protein kinase 13 (MAPK13, Homo sapiens, UniProt O15264): 97.4%
Dual specificity mitogen-activated protein kinase kinase 6 (MAP2K6, Homo sapiens, UniProt P52564): 86.6%
